{"data": "Measurements of several laboratories", "note": "Lines come from different studies, so protocols differ. ± marks the error that the study gave."}
{"SMILES": "Cc1ncsc1-c1ccc(C(C)NC(=O)C2CC(O)CN2C(=O)C(NC(=O)CCCCCCCCCCN2CCCC(Nc3ncc(Cl)c(Nc4ccccc4S(=O)(=O)C(C)C)n3)C2)C(C)(C)C)cc1 (stereo not shown)", "tested on": "22Rv1", "assay": "RNA-seq, item: PLEKHA6 mRNA", "setting": "concentration not given", "how to read": "reference: DMSO", "endpoint": "log2 fold change", "result": -2.81}
{"SMILES": "Nc1ncc(-c2cc(-c3cnn(CC(F)(F)F)c3)ncc2F)nc1C(=O)NC1CNCC(F)C1 (stereo not shown)", "tested on": "CSNK1G2", "assay": "KINOMEscan", "setting": "1 µM", "how to read": "reference: DMSO control", "endpoint": "remaining binding", "result": "46%"}
{"SMILES": "O=C(N/N=C/c1ccc(C[n+]2ccccc2)cc1)c1cccc(C(=O)N/N=C/c2ccc(C[n+]3ccccc3)cc2)c1", "tested on": "hp2 hairpin duplex DNA", "assay": "FRET melting", "setting": "1 µM", "endpoint": "ΔTm", "result": "-0.2 ± 0.1 °C"}
{"SMILES": "COC1CN([C@H]2CC[C@H]([C@@]3(C)Oc4c(Cl)cc(C(=O)NCc5c(SC)cc(C)[nH]c5=O)c(C)c4O3)CC2)C1", "assay": "RNA-seq, item: AJUBA", "system": "human, whole blood", "setting": "dose not given, 24 h", "how to read": "reference: pretreatment baseline", "endpoint": "log2 fold change", "result": 1.34}
{"SMILES": "C=CC(=O)N1[C@@H](c2ccc3c(c2)OCO3)c2[nH]c3ccccc3c2C[C@H]1C(=O)N1CCN(C)CC1", "tested on": "CCNE1 WT-3xFLAG:CDK2 complex", "assay": "co-IP TMT proteomics, item: KPNB1", "system": "HEK-293T", "setting": "20 µM, 6 h", "how to read": "reference: DMSO", "endpoint": "log2 fold change", "result": -0.42}
{"SMILES": "CC[n+]1cccc2cc(/C=N/NC(=O)N/N=C/c3ccc4c(ccc[n+]4CC)c3)ccc21", "tested on": "MYC parallel G4 DNA", "assay": "FRET melting", "setting": "1 µM, DNA 0.2 µM", "endpoint": "ΔTm", "result": "4.7 ± 0.9 °C"}
{"SMILES": "CNS(=O)(=O)Nc1nccc(Cc2c(C)c3ccc(Oc4ncccc4F)cc3oc2=O)c1F", "tested on": "DS-1", "assay": "cell viability, CellTiter-Glo", "setting": "7 days", "endpoint": "IC50", "result": "0.107 µM"}
{"SMILES": "C=CC(=O)Nc1cccc(Cn2ncc3cnc(Nc4cnn(CCOC)c4)nc32)c1", "tested on": "PLK3 human", "assay": "binding, KINOMEscan", "setting": "100 nM", "how to read": "lower = stronger binding", "endpoint": "percent of control", "result": "100%"}
{"SMILES": "COCC/N=C(\\S)N/N=C(\\C)c1ccccc1O", "tested on": "Mus musculus", "assay": "gene silencing, high-content imaging", "system": "LDR reporter GFP cells", "setting": "30 h, retest run 1", "endpoint": "Emax", "result": "63%"}
{"SMILES": "C[n+]1cc(/C=N/NC(=O)c2cncc(C(=O)N/N=C/c3cc4ccccc4[n+](C)c3)n2)cc2ccccc21", "tested on": "MYC parallel G4 DNA", "assay": "FRET melting", "setting": "1 µM, DNA 0.2 µM, added: duplex DNA competitor 10 µM", "endpoint": "ΔTm", "result": "4.6 ± 0.2 °C"}
